Results pooled from the literature.
Protocols differ between the studies behind these lines. “And” joins repeats or separate records; there may be more than shown. Numbers after ± are the reported error.

Structure (SMILES)	assay	test system	conditions	how to read	measurement	result
N#Cc1ccc2c(c1)[C@H]1CCCN(C(=O)c3ccc4[nH]cnc4c3)[C@H]1C2		human females	10 mg, day 15		SHBG level	28.6 nmol/L
C[C@H](O)C(=O)C1=Nc2c(nc(N)[nH]c2=O)NC1		healthy human volunteers	oral, 20 mg/kg, 4 days, monotherapy	relative to: subjects	moderate TEAE incidence	0%
CCc1cc(C(=O)NC)c2nccc(N3CCc4c(cc(Cn5ccnc5)cc4-c4cn(C)nc4C(F)(F)F)C3=O)c2c1		Sprague Dawley rat	oral, 100 mg/kg once daily, 7 days	relative to: vehicle	kidney weight change	6.48%
CNc1ccc(-c2nc3ccc(O)cc3s2)cc1 [carbon-11 labelled]	microPET/CT imaging	APP/PS1 mouse, AD model, heart	intravenous, 5 min		SUV	1.17 ± 0.743
Cc1oc(C)c(S(=O)(=O)NCc2ccc(Br)c(F)c2F)c1C(=O)O	colloidal aggregate formation, dynamic light scattering	50 mM potassium phosphate buffer	200 µM, pH 7.0, 1% DMSO	higher = more aggregation	DLS scattered light intensity	456000 counts/s
O=C(c1cccnc1-c1ccncc1)N1CCC(O)(Cc2ccccc2)CC1		healthy Japanese adults, plasma	oral, 100 mg twice daily, day 1		CL/F	452 L/h
CCCC1CCC(c2ccc(-c3ccc(CC)cc3)cc2)CC1 (stereo not drawn)	item: compound	human pregnant women, male fetuses, maternal serum	dose not given, paired maternal-cord samples, mean		concentration	0.45 ng/mL
COc1ccc(Cl)cc1C(=O)NCCc1ccc(S(=O)(=O)NC(=O)NC2CCCCC2)cc1 [carbon-11 labelled]	population PK model	humans	including SLCO1B1-mutated subject		liver to blood rate constant	19 h⁻¹
Cc1c(C(=O)O)ccc2c3n(nc12)[C@@H]1[C@H](C3)N(CC2CC2)[C@@]2(C(=O)Nc3cc(Cl)ccc32)[C@H]1c1cccc(Cl)c1F		female BALB/c nude mice, SJSA-1 xenograft, plasma	oral, 2 mg/kg once daily, mean		AUC(0-t)	31.1 µM·h
COc1ccc([C@@H](O)c2cc(-c3ncnc4cc(N5CCOCC5)ccc34)c(F)cc2Cl)nn1		locally advanced rectal cancer patients	150 mg, together with: capecitabine and radiotherapy		drug-related nausea incidence	33%
NC1(C(=O)N[C@@H](CCO)c2ccc(Cl)cc2)CCN(c2nc[nH]c3nccc2-3)CC1		metastatic CRPC patients	400 mg b.i.d., any grade, treatment-related, together with: enzalutamide 160 mg daily		incidence of Hyper-glycaemia	28.6%
C=CC(=O)Nc1cc(Nc2nccc(-c3cn(C)c4ccccc34)n2)c(OC)cc1N(C)CCN(C)C	storage stability	human dried blood spot	10 d, -80 °C, MQC level		recovery	87.4%
Cl.[2H]C([2H])([2H])CC(=O)c1cnc(NC(=O)C2CC2)cc1Nc1cccc(-c2ncn(C([2H])([2H])[2H])n2)c1OC	geometric mean	human	oral, 25 mg single dose, fasted, liquid		elimination rate constant	2.42e-05 s⁻¹
Cc1ccc(NS(=O)(=O)c2ccc(F)cc2O)cc1N1CCOC1=O	colloidal aggregate formation, dynamic light scattering	50 mM potassium phosphate buffer	200 µM, pH 7.0, 1% DMSO	higher = more aggregation	DLS scattered light intensity	787000 counts/s
CO/N=C(\C(=O)N[C@@H]1C(=O)N2C(C(=O)O)=C(COC(C)=O)CS[C@H]12)c1csc(N)n1		human whole blood	concentration not given, 24 h, 4 °C		deviation from nominal concentration	-2.7%
COc1ccnc(C(N)=O)c1O	soil adsorption	clay soil	pH 7.6, organic carbon 1.7 %		Freundlich coefficient KF	11.4 mL/g
O=[N+]([O-])c1ccccc1CCNS(=O)(=O)c1cccc(Cl)c1O	colloidal aggregate formation, dynamic light scattering	50 mM potassium phosphate buffer	200 µM, pH 7.0, 1% DMSO	higher = more aggregation	DLS scattered light intensity	2.8e+06 counts/s
Cc1ccc([C@@H]2O[C@H](CO)[C@@H](O)[C@H](O)[C@H]2O)cc1Cc1ccc(-c2ccc(F)cc2)s1		Japanese type 2 diabetes patients	400 mg, day 1, 24 h urine collection	relative to: baseline	urinary chloride excretion change	27.1 mEq
O=S(=O)(Nc1c(CO)ccc(Cl)c1Cl)c1cccc(Cl)c1O	colloidal aggregate formation, dynamic light scattering	50 mM potassium phosphate buffer	200 µM, pH 7.0, 1% DMSO	higher = more aggregation	DLS scattered light intensity	628000 counts/s

Structure (SMILES)	assay	test system	conditions	how to read	measurement	result
CCN1/C(=C/C(C)=O)Sc2ccc(F)cc21		cynomolgus monkey	oral, 30 mg/kg, 24 h post-dose		QRS duration	35 ± 1 ms
O=C1NCCc2nc(OCc3cccc(F)c3)ccc21	item: Convulsions	Sprague-Dawley rat male	oral, 100 mg/kg, 4 h	direction not given	Irwin test score	0
Cc1cc(-c2nccc3c2ccn3CC(=O)Nc2ccc(-c3cnccn3)cn2)ccn1		human	5 mg once daily, multiple ascending dose		vessel puncture site haematoma	0%
COc1ccnc(C(=O)N[C@H]2COC(=O)[C@H](Cc3ccccc3)[C@@H](O)[C@H](C)OC2=O)c1O	soil adsorption	clay soil	pH 7.6, organic carbon 1.7 %		Freundlich coefficient KF	12.4 mL/g
O=S(=O)(Nc1ccc(O)c(C(F)(F)F)c1)c1cc(Cl)cc(Cl)c1O	colloidal aggregate formation, dynamic light scattering	50 mM potassium phosphate buffer	200 µM, pH 7.0, 1% DMSO	higher = more aggregation	DLS scattered light intensity	397000 counts/s
COCCCNC(=N)c1ccc(NC(=O)c2ccc(C(=O)Nc3ccc(C(=N)NCCCOC)cc3)cc2)cc1	haemolysis	sheep erythrocytes	1 h, pH 7.5		HC50	> 128 µg/mL
O=C1Cc2cc(CCN3CCN(c4nsc5ccccc45)CC3)c(Cl)cc2N1		male Hartley guinea pig, anaesthetized	intravenous infusion, 0.1 mg/kg, 10 min infusion, post-infusion		QTc interval	352 ± 0.7 ms
O=C(Nc1cnccc1Cl)N1CCN(Cc2ccc3c(c2)OC(F)(F)O3)CC1	multiple ascending dose	young men	75 mg, treatment-emergent adverse events		alanine aminotransferase increased	0%
Cc1c(-c2ccc(N3CCc4cccc(C(=O)Nc5nc6ccccc6s5)c4C3)nc2C(=O)O)cnn1CC12CC3(C)CC(C)(C1)CC(OCCNCC[C@H](O)CO)(C3)C2		anesthetized male beagle dogs	intravenous infusion, 0.3 mg/kg/min, 45 min	relative to: vehicle	PR interval change	-2 ms
C[C@H](CS)C(=O)N1CCC[C@H]1C(=O)O		male Hartley guinea pig, anaesthetized	intravenous, 30 mg/kg, baseline before infusion		QTc interval	359 ± 0.3 ms
COc1cc2nccc(Oc3ccc(NC(=O)NC4CC4)c(Cl)c3)c2cc1C(N)=O	UPLC-MS/MS	Sprague-Dawley rat, male, plasma	oral, 10 mg/kg, without azole co-treatment		terminal half-life	260 ± 106 min
O=C(Nc1ccc(OC(F)(F)Cl)cc1)c1cnc(N2CC[C@@H](O)C2)c(-c2ccn[nH]2)c1		human patients	oral, dose not given, dose-finding, any grade	relative to: records	amylase increase incidence	6.5%
C#Cc1cccc(Nc2ncnc3cc(OCCOC)c(OCCOC)cc23)c1	UPLC-MS/MS	Wistar rat, male, plasma	oral, dose not given, four weeks, together with: PPA 1000 mg/kg, high dose	relative to: control	AUC(0-72h) increase	78%
O=C1N[C@H](c2cncc(C#Cc3ccccc3)c2)[C@@H](c2ccccc2Cl)O1		monkey	28 days		NOAEL	200 mg/kg/day
C[C@H](CCC(=O)NCCS(=O)(=O)O)[C@H]1CC[C@H]2[C@@H]3CC[C@@H]4C[C@H](O)CC[C@]4(C)[C@H]3C[C@H](O)[C@]12C		human, plasma	endogenous baseline diurnal		daily mean concentration	41.3 ± 8.5 nM
N#Cc1cc(NC(=O)[C@H]2c3ccccc3C(=O)N(CC(F)(F)F)[C@@H]2c2cccnc2)ccc1F		human	oral, fasted, cohorts 1-4, population mean		CL	562 mL/min
COc1ccc2c(c1)CN(C(=O)CCN1CCC(Cc3ccccc3)CC1)CC[S@@+]2[O-]		healthy male volunteers, urine	intravenous, 0.15 mg/kg	relative to: dose	urinary excretion	7.68 ± 2.68%
Cc1ccc(C(=O)N(CCCN)C(c2nc3snc(C)c3c(=O)n2Cc2ccccc2)C(C)C)cc1 (stereo not drawn)		human patients, plasma	intravenous, 18 mg/day, day 3 of induction course, geometric mean		plasma concentration at 24 h	48 ng/mL
CNC(=O)c1cc(Oc2ccc(NC(=O)N(c3ccc(Cl)c(C(F)(F)F)c3)[C@@H]3O[C@H](C(=O)O)[C@@H](O)[C@H](O)[C@H]3O)cc2)ccn1		mouse, Oatp1b2 knockout, plasma	oral, 10 mg/kg, geometric mean, together with: rifampin 20 mg/kg iv		AUC(0-7.5 h)	53900 ng·h/mL

Structure (SMILES)	assay	test system	conditions	how to read	measurement	result
CNC(=O)c1cccc(-c2ccc([C@@H](O)[C@H]3O[C@H](CO)[C@@H](O)[C@H](O)[C@@H]3O)c(C)c2)c1		Sprague-Dawley rat, male, plasma	intravenous, 3 mg/kg		terminal half-life	28.9 min and 30.7 min and 28.3 min
O=C(C[n+]1cc(-c2ccc(Cl)cc2)n2c1CCC2)Nc1ccc(Cl)c(Cl)c1	haemolysis	sheep erythrocytes	1 h, pH 7.5		HC50	> 128 µg/mL
Cc1ccc(Sc2ccccc2N2CCNCC2)c(C)c1		healthy adult men	oral, 2.5 mg single dose, treatment-emergent adverse events		pyrexia incidence	0%
CN1C[C@H](COc2nccc3c(NCc4ccco4)cc(Cl)nc23)OC1=O		rabbit, isolated Langendorff heart	dose not given		effect on QT	negative
C=CCN1CC(=O)N2[C@@H](Cc3ccc(O)cc3F)C(=O)N(Cc3cccc(N4CC(N5CCN(CC)CC5)C4)n3)C[C@@H]2N1C(=O)NCc1ccccc1	item: Diarrhea	advanced solid tumour patients	all doses, dose-escalation part, grade ≥3		treatment-related adverse events	0%
CCOc1c([C@H](C)n2nc(C)c3c(N)ncnc32)cc(Cl)c(F)c1[C@@H]1CNC(=O)C1	item: unchanged compound	Japanese patients, urine	oral, dose not given, 0-8 h, cycle 1 day 15		urinary excretion, unchanged	12.1 ± 4.8%
O=C(O)CCC(=O)O.[2H]C([2H])([2H])Oc1cc(C)c2[nH]ccc2c1CN1CC[C@@H](C2CC2)C[C@H]1c1ccc(C(=O)O)cc1	multiple ascending dose	healthy Chinese subjects	125 mg twice daily		subjects with TEAE Constipation	25%
O=C(Nc1nc2cccc(-c3ccc(CN4CCS(=O)(=O)CC4)cc3)n2n1)C1CC1	item: any adverse event	human rheumatoid arthritis patients	oral, 200 mg once daily, 4 weeks, regardless of relatedness		treatment-emergent adverse events	50%
O=c1[nH]c(=O)n([C@H]2C[C@H](O)[C@@H](CO)O2)cc1CCCCC[18F]		tumour-bearing nude mice, blood	intravenous, dose not given, 2 h		blood activity	0.27 ± 0.2 %ID/g
Oc1ccc(/C=C/c2cc(O)cc(O)c2)cc1		male Wistar rats, plasma	oral, 10 mg/kg		AUC(0-24 h)	523 ± 84.2 ng·h/mL
Nc1ccn([C@@H]2O[C@H](CO)[C@@H](O)C2(F)F)c(=O)n1	item: dFdU	human, plasma	intravenous, 1000 mg/m^2, together with: before paricalcitol		Tmax, mean	83.4 min
Cc1cnc(N2CC3(CCOCC3)C2)c(C(=O)Nc2ccc(C(=O)N3CCc4cc(C(=O)Nc5c(C)cccc5F)sc4-c4ccccc43)cc2)c1		human, nasal epithelial lining fluid	inhaled, 5 mg twice daily, 96 h		concentration	13100 ng/mL
CCn1cc(C(=O)N2CCOCC2)c(=O)c2cc(NC3Cc4ccccc4C3)cnc21		human, fed	oral suspension, 2000 mg/day twice daily, day 1, arithmetic mean		AUC(0-12)	8790 ng·h/mL
COc1cc(N2CCC(N3CCN(C)CC3)CC2)ccc1Nc1ncc(Cl)c(Nc2ccccc2P(C)(C)=O)n1		healthy subjects, plasma	oral, 90 mg, single dose, geometric mean		AUC(0-120 h)	6740 ng·h/mL
CO[C@H]1C[C@@H]2CC[C@@H](C)[C@@](O)(O2)C(=O)C(=O)N2CCCC[C@H]2C(=O)O[C@H]([C@H](C)C[C@@H]2CC[C@@H](OC(=O)NCCOCCOCCOCCOCCOCCOCCOCCOCCC(=O)N3CCc4cc(Cn5nc(-c6ccc7oc(N)nc7c6)c6c(N)ncnc65)ccc4C3)[C@H](OC)C2)C[C@@H](O)[C@H](C)/C=C(\C)[C@@H](O)[C@@H](OC)C(=O)[C@H](C)C[C@H](C)/C=C/C=C/C=C/1C		human patients, plasma	intravenous, 16 mg, cycle 1	relative to: day 15 over day 1	AUClast ratio	1.3
O=C1c2ccncc2C(=O)c2c1[nH]c1ccccc21		Sprague-Dawley rat male, plasma	intravenous, 5 mg/kg		terminal half-life	594 ± 318 min
C[C@H]1Oc2cc(cnc2N)-c2c(nn(C)c2C#N)CN(C)C(=O)c2ccc(F)cc21		human patients, plasma	oral, cycle 2 day 1, median, together with: avelumab		Cmax, dose-normalized	6 ng/mL/mg
CC(C)(C(=O)N1CCOc2c(C#N)cncc2C1)C(F)F	item: vessel puncture site haemorrhage	human, both sexes	oral, 20 mg twice daily, 14 days, multiple ascending dose		subjects with TEAE	12.5%
Cc1cc(-c2nnc(N)nc2-c2ccc(F)cc2)cc(Cl)n1	item: rash, grade ≥ 3	post-IO NSCLC patients	oral, 100 mg once daily		incidence of AE, immune-mediated, treatment-related	0%

Excerpt of the above:
Structure (SMILES)	assay	test system	conditions	how to read	measurement	result
O=S(=O)(Nc1ccc(O)c(C(F)(F)F)c1)c1cc(Cl)cc(Cl)c1O	colloidal aggregate formation, dynamic light scattering	50 mM potassium phosphate buffer	200 µM, pH 7.0, 1% DMSO	higher = more aggregation	DLS scattered light intensity	397000 counts/s
CNC(=O)c1cc(Oc2ccc(NC(=O)N(c3ccc(Cl)c(C(F)(F)F)c3)[C@@H]3O[C@H](C(=O)O)[C@@H](O)[C@H](O)[C@H]3O)cc2)ccn1		mouse, Oatp1b2 knockout, plasma	oral, 10 mg/kg, geometric mean, together with: rifampin 20 mg/kg iv		AUC(0-7.5 h)	53900 ng·h/mL
Cc1cnc(N2CC3(CCOCC3)C2)c(C(=O)Nc2ccc(C(=O)N3CCc4cc(C(=O)Nc5c(C)cccc5F)sc4-c4ccccc43)cc2)c1		human, nasal epithelial lining fluid	inhaled, 5 mg twice daily, 96 h		concentration	13100 ng/mL
Cc1cc(-c2nnc(N)nc2-c2ccc(F)cc2)cc(Cl)n1	item: rash, grade ≥ 3	post-IO NSCLC patients	oral, 100 mg once daily		incidence of AE, immune-mediated, treatment-related	0%
